Experimental data collected from several papers.
± gives the spread as reported.
RPA1 N-terminal domain: Replication protein A 70 kDa DNA-binding subunit, N-terminal domain (RPA1, Homo sapiens, UniProt P27694)
Hepatitis A virus cellular receptor 2: Hepatitis A virus cellular receptor 2 (Homo sapiens, UniProt Q8TDQ0)

Sequences of proteins named here, by UniProt entry; tags and fusion partners are left off. A change or cut given only in a name is not applied to a line headed by its entry. Residues count along the entry.
UniProt O60502, whole entry: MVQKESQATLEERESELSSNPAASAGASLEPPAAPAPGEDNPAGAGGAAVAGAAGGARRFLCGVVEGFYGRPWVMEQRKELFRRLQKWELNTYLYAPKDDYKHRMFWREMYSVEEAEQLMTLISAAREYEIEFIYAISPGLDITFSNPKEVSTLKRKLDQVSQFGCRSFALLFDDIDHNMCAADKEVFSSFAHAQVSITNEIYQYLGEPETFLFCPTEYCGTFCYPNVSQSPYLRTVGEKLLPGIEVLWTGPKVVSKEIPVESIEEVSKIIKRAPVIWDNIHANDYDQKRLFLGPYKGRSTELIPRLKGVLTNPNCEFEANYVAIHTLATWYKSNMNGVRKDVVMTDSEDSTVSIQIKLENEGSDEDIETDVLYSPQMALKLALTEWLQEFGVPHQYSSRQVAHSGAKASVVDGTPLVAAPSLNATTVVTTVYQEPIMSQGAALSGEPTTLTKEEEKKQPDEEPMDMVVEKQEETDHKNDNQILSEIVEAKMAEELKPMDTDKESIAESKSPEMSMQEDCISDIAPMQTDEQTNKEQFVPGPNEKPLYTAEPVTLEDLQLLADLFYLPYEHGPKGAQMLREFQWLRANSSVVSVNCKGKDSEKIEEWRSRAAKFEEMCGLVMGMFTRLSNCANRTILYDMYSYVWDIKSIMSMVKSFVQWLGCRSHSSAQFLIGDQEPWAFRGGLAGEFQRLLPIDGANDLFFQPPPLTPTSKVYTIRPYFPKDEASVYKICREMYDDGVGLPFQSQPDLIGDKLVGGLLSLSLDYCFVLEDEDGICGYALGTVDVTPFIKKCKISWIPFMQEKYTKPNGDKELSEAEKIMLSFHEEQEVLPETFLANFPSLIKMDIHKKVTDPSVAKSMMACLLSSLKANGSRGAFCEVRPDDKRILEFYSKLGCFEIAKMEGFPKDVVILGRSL
UniProt P07900, 1-236 limits assumed: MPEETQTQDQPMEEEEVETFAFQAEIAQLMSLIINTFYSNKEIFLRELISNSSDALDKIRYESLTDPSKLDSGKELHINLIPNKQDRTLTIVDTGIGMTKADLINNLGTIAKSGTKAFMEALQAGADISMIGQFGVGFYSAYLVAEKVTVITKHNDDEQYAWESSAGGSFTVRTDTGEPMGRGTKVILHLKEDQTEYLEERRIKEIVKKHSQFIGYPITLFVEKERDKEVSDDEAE
UniProt O14744, whole entry: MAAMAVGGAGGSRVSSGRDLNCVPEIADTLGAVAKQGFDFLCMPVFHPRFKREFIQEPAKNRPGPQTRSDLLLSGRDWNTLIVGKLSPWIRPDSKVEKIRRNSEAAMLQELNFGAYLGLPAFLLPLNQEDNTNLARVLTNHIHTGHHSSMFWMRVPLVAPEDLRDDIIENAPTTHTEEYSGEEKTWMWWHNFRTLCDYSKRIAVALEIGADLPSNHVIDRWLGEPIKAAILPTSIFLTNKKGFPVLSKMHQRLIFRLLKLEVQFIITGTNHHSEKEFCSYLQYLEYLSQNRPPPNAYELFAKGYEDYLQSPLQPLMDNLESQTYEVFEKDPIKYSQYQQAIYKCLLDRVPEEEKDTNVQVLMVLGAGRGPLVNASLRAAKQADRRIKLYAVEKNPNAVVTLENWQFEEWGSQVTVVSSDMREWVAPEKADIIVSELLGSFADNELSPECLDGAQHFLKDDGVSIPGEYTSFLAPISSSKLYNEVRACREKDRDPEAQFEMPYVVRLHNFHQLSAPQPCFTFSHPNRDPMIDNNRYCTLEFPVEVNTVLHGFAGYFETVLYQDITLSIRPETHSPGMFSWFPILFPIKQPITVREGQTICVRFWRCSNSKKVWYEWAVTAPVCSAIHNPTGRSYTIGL
UniProt P48729, 2-337 limits assumed: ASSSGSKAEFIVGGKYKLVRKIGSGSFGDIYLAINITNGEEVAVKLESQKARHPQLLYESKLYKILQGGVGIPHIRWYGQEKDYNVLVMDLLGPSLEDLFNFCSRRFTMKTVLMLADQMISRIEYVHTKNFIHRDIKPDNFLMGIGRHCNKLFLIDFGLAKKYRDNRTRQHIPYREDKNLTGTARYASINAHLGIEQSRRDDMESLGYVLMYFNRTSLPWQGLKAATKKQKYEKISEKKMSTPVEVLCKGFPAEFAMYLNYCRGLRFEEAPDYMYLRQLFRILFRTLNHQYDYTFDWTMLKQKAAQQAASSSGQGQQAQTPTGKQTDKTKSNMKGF
UniProt Q9UBZ9, 1158-1251 limits assumed: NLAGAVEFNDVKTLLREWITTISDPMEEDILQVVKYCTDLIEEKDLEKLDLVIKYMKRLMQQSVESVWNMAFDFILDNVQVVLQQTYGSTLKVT
UniProt Q06187, whole entry: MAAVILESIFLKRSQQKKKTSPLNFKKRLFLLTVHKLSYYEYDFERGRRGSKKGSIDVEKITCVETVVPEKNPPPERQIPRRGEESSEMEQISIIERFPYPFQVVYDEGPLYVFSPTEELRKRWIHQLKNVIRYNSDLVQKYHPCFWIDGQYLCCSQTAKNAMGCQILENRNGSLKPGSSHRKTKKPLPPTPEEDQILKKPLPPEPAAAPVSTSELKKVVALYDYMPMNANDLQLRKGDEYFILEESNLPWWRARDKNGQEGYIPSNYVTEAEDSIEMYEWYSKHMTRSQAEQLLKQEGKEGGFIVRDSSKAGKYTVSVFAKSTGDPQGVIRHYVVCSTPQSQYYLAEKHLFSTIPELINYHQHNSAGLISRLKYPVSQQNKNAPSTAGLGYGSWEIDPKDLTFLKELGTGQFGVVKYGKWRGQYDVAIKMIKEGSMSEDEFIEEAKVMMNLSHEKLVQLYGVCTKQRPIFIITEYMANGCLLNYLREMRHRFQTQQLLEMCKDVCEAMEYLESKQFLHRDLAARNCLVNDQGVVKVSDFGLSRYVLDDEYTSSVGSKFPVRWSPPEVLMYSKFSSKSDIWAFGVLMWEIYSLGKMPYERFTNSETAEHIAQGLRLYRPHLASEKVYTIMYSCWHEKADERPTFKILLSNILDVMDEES
UniProt P04406, whole entry, looked up: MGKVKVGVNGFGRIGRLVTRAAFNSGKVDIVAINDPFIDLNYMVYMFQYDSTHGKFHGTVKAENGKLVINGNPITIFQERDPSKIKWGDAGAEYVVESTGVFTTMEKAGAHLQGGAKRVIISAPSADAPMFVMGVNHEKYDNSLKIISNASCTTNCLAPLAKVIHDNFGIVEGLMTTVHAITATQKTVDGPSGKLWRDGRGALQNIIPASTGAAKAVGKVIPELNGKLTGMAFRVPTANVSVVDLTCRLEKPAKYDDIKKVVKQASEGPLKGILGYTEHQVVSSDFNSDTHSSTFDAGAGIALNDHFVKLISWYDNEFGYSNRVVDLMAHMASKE
UniProt Q07011, whole entry, looked up: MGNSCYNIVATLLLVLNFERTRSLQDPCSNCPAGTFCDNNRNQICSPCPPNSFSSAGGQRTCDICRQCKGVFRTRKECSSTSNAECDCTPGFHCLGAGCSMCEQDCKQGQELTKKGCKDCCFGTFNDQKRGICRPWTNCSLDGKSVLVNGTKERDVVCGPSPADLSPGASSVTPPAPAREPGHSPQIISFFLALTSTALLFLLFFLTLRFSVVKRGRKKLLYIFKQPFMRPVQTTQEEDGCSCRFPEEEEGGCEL
UniProt Q9H7M9, whole entry, looked up: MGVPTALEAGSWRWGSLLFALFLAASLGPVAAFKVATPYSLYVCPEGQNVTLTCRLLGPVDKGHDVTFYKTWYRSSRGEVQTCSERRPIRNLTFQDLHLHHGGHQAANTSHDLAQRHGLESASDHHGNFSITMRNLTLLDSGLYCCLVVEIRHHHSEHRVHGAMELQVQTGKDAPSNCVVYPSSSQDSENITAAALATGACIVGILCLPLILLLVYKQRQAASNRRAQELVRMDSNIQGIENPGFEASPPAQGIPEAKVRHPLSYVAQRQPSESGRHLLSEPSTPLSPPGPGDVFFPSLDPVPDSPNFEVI
UniProt Q7Z6A9, whole entry, looked up: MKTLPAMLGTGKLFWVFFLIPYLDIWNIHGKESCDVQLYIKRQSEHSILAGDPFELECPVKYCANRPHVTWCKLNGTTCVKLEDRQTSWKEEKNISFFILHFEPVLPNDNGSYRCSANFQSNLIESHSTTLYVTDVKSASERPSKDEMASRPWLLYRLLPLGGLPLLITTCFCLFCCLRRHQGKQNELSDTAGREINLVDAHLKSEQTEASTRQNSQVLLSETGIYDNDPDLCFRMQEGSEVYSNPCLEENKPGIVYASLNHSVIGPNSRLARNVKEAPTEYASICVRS
UniProt Q86U86, whole entry, looked up: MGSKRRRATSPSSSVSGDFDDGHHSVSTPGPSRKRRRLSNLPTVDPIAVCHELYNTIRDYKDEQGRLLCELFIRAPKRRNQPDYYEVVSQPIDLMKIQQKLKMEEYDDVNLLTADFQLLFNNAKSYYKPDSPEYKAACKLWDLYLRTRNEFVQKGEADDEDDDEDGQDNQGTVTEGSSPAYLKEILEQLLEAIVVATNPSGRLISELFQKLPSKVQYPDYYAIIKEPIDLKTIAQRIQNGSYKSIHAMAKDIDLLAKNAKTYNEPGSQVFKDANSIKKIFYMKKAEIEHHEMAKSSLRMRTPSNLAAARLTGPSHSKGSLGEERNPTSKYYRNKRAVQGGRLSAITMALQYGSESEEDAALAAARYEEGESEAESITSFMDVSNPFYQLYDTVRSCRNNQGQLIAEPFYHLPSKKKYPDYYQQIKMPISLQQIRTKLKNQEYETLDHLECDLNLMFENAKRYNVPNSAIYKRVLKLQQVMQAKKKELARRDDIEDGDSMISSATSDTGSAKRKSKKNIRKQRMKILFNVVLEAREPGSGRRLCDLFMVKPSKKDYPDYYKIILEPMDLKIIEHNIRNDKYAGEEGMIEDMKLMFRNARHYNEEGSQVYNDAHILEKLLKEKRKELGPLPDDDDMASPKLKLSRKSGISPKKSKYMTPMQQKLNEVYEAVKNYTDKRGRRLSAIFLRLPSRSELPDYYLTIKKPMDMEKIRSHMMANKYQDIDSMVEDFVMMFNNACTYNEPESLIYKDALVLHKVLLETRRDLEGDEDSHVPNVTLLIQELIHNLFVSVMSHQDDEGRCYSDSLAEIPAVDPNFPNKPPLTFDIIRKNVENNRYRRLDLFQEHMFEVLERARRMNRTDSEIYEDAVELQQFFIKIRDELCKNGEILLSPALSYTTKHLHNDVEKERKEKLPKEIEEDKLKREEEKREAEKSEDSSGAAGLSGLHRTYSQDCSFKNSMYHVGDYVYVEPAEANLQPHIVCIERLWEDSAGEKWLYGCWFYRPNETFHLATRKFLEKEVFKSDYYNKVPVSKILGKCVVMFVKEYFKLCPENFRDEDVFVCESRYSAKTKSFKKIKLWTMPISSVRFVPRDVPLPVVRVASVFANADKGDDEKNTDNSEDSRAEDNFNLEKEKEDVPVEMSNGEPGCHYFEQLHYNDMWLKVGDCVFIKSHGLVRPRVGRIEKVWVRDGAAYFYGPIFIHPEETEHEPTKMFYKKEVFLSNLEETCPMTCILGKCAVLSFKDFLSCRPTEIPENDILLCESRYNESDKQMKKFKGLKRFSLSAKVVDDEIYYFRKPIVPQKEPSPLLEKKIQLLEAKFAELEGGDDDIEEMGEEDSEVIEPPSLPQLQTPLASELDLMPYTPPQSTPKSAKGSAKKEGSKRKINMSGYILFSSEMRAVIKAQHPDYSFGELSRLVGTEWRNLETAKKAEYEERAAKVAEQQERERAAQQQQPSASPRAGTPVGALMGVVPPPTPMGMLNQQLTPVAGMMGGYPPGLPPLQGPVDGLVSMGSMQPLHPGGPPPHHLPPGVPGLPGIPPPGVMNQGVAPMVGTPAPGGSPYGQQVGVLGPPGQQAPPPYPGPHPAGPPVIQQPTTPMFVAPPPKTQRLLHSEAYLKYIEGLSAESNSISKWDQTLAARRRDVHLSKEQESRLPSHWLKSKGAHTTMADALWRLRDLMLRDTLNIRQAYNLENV
UniProt Q9Y3Z3, whole entry: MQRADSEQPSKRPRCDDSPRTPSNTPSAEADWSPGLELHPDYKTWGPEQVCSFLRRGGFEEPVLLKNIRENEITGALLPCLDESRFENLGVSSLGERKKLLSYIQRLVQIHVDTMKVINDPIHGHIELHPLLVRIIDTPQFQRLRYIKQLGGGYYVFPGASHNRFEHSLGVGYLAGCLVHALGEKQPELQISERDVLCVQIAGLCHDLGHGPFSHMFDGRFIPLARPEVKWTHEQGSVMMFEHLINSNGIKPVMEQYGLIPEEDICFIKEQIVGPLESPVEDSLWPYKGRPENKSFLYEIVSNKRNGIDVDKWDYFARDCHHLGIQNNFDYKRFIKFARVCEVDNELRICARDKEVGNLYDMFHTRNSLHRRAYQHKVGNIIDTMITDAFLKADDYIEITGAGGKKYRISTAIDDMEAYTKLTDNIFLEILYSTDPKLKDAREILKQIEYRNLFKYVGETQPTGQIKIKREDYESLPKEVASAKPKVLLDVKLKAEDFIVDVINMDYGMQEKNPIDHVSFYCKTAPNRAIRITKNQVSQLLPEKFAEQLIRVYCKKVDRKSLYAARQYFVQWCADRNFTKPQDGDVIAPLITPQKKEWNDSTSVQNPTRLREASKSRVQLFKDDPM
UniProt O15151, 23-111 limits assumed: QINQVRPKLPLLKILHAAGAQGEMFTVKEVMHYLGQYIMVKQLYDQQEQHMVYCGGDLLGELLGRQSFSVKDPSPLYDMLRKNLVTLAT

Cc1cc(-c2ccc3nc(-c4cnn(CC(C)(C)O)c4)nc(N4CCOC[C@@H]4c4ccccc4)c3c2)cn(C)c1=O (single isomer, unassigned)  Kd (Histone acetyltransferase p300 (EP300, Homo sapiens, UniProt Q09472); binding, BROMOscan competition binding): 0.02 µM
C[C@@H]1NCCN([C@@H](C)C(=O)N2CCN([C@@H](C)C(N)=O)C(=O)[C@@H]2C)C1=O  Kd (Histone acetyltransferase p300, CH1 domain (EP300, Homo sapiens, UniProt Q09472); intrinsic tryptophan fluorescence): > 10 µM
Cc1ccc(C(=O)Nc2ccc(Br)cc2C(=O)O)cc1S(=O)(=O)Nc1cccc(Cl)c1  Kd (RPA1 N-terminal domain; binding, fluorescence polarisation competition; together with: FITC-ATRIP probe): 14 ± 0.5 µM
CC(=O)Nc1ncc(CN2CC[C@H](Oc3cccc(F)n3)C[C@@H]2C)s1 [isotope labelled]  Kd (Protein O-GlcNAcase (OGA, Homo sapiens, UniProt O60502); saturation binding; human striatum homogenate; radiolabelled compound): 0.0016 ± 0.0004 µM
C/C=C/Cn1c(Cc2cc(OC)c(OC)c(OC)c2)nc2c(N)ncnc21  Kd (Heat shock protein HSP 90-alpha, N-terminal domain (HSP90AA1, Homo sapiens, UniProt P07900); isothermal titration calorimetry; 298 K, N-terminal domain): 2 ± 0.14 µM
COc1ccc(CC(=O)OCc2ccc(-n3cccn3)cc2)cc1F  Kd (CD28 (Homo sapiens, UniProt P10747); microscale thermophoresis; 2% DMSO): 24.1 ± 6.3 µM
Cc1cc(=O)[nH]c(-c2cccc(NC(=O)c3ccc(O)cc3F)c2)n1  Kd (Cystathionine gamma-synthase 1, chloroplastic (CGS1, Arabidopsis thaliana, UniProt P55217); binding, microscale thermophoresis): 9.28 µM
Cc1ccc(C(=O)Nc2cc(Cl)cc(Cl)c2)cc1Nc1nc(-c2cccnc2)nc2c1cnn2C  Kd (Ephrin type-A receptor 2 (EPHA2, Homo sapiens, UniProt P29317); binding, microscale thermophoresis; kinase domain; 25 °C, 5% DMSO): 0.022 µM
CCc1ccc(NS(=O)(=O)c2cc(C(=O)Nc3ccccc3C(=O)O)ccc2C)cc1  Kd (RPA1 N-terminal domain; binding, fluorescence polarisation competition; together with: FITC-ATRIP probe): 95 ± 6.5 µM
COC(=O)[C@@H]1C(C=Nc2cncnc2N)=Cc2cc3c(cc2[C@H]1c1cc(OC)c(OC)c(OC)c1)OCO3  EC50 (Leishmania infantum; promastigote, iRFP): 91 ± 2 µM
Nc1ncnc2c1ccn2[C@@H]1O[C@H](COc2ccc3cc(Br)cnc3c2)[C@@H](O)[C@H]1O  Kd (Protein arginine N-methyltransferase 5, with MEP50 (PRMT5, Homo sapiens, UniProt O14744); binding, surface plasmon resonance): 0.00328 µM
Cc1ccc(NC(=O)c2ccc(C)c(S(=O)(=O)Nc3ccc(Cl)c(Cl)c3)c2)c(C(=O)O)c1  Kd (RPA1 N-terminal domain; binding, fluorescence polarisation competition; together with: FITC-ATRIP probe): 7 ± 0.5 µM
COC1C=COC2(C)Oc3c(C)c(O)c4c(O)c(cc(OCC(=O)O)c4c3C2=O)NC(=O)C(C)=CC=CC(C)C(O)C(C)C(O)C(C)C(OC(C)=O)C1C (stereo not drawn)  Kd (DNA-directed RNA polymerase subunit beta (rpoB, Escherichia coli K-12, UniProt P0A8V2); binding, competition pulldown MS; Escherichia coli lysate): 0.09 µM
C#CCOc1ccc(C[C@H](N)C(=O)N[C@@H](CC(=O)O)C(=O)N[C@@H](CO)C(=O)N[C@@H](CCC(=O)O)C(=O)N[C@H](C(=O)NCC(=O)N[C@@H](CCC(=O)O)C(=O)N[C@@H](CS)C(=O)O)[C@@H](C)O)cc1  Kd (Kelch-like ECH-associated protein 1, Kelch domain (KEAP1, Homo sapiens, UniProt Q14145); plate binding; FLAG-CBD-fused peptide): 0.555 ± 0.017 µM
NS(=O)(=O)c1ccc(Cc2c(-c3ccc(F)c(/C=C/C4CCCC4)c3)nn(-c3nc(C(=O)O)cs3)c2CC2CC2)cc1F  Kd (L-lactate dehydrogenase A chain (LDHA, Homo sapiens, UniProt P00338); binding, SPR; together with: NADH): 0.00019 µM
CCN1CCN(c2nc3ccccc3nc2C(C#N)C(=O)OC2CCCCC2)CC1 (stereo not drawn)  Kd (Casein kinase I isoform alpha (CSNK1A1, Homo sapiens, UniProt P48729); KINOMEscan binding): 2.2 µM
Cc1ccc(N=Nc2ccc(N)nc2N)cc1C  Kd (DNA repair protein REV1, C-terminal domain (Homo sapiens, UniProt Q9UBZ9); microscale thermophoresis; cis-trans isomer mixture, together with: labelled DNA repair protein REV1 20 nM): 17 ± 1 µM
COc1cc([C@@H]2c3cc4c(cc3[C@](O)(C3(O)CCOCC3)[C@H]3COC(=O)[C@H]23)OCO4)cc(OC)c1OC  EC50 (Leishmania infantum; promastigote, iRFP): > 100 µM
O=S(=O)(Cc1ccc(-c2nc(-c3cccnc3)no2)o1)c1ccc(Cl)cc1  Kd (Catenin beta-1, residues 141-305 (CTNNB1, Homo sapiens, UniProt P35222); isothermal titration calorimetry; 25 °C): 0.27 µM
CC(C)(C)c1ccnc(NC(=O)c2ccc(-c3nn([C@@H]4CCCN(C(=O)C5CC5)C4)c4ncnc(N)c34)cc2)c1  Kd (Tyrosine-protein kinase BTK, non-phosphorylated (BTK, Homo sapiens, UniProt Q06187); TR-FRET binding kinetics; 37 °C, unphosphorylated enzyme): 0.055 ± 0.002 µM
COc1ccc(CCN2CCCC(CN(C)Cc3ccc(C#CC(C)(C)C)cc3)C2)cc1 (stereo not drawn)  Kd (Hepatitis A virus cellular receptor 2; microscale thermophoresis): 0.84 µM
Cc1cccc(C(=O)Nc2cc(-c3cncc4ccccc34)ccc2N2CCN(C)CC2)c1  Kd (WD repeat-containing protein 5 (WDR5, Homo sapiens, UniProt P61964); binding, surface plasmon resonance): ~116 µM
CC1=C[C@@]2(O)[C@@](O)(OC1)[C@@H](C)[C@@H]1CC[C@H](C)[C@H]1[C@]2(O)C(=O)[C@H](C)CCc1occc1C  Kd (Glyceraldehyde-3-phosphate dehydrogenase (GAPDH, Homo sapiens, UniProt P04406); ITC): 3.01 µM
CCCCNC(=S)N(CCCN1CCOCC1)Cc1cc2cc(C)cc(C)c2[nH]c1=O  Kd (Tumor necrosis factor receptor superfamily member 9 (Homo sapiens, UniProt Q07011); binding, microscale thermophoresis): 2.04 µM
Cc1ccc(C(=O)Nc2ccc(F)cc2C(=O)O)cc1S(=O)(=O)Nc1ccc(Cl)c(Cl)c1  Kd (RPA1 N-terminal domain; binding, fluorescence polarisation competition; together with: FITC-ATRIP probe): 15 ± 1 µM
C=CCn1c(CN(C)Cc2cc(OC)c(OC)c(OC)c2)nnc1SCC1CCCO1 (stereo not drawn)  Kd (V-type immunoglobulin domain-containing suppressor of T-cell activation (VSIR, Homo sapiens, UniProt Q9H7M9); microscale thermophoresis): 0.72 µM
Cc1ccc(C(=O)Nc2cc(F)ccc2C(=O)O)cc1S(=O)(=O)Nc1ccc(Cl)c(Cl)c1  Kd (RPA1 N-terminal domain; binding, fluorescence polarisation competition; together with: FITC-ATRIP probe): 8 ± 2 µM
COc1ccc(OC)c(-c2cc(C(=O)NCCC(O)c3ccc4c(c3)OCO4)n(C)n2)c1 (stereo not drawn)  Kd (B- and T-lymphocyte attenuator (BTLA, Homo sapiens, UniProt Q7Z6A9); binding, microscale thermophoresis): 5.26 µM
Cc1ccc(C(=O)Nc2ccccc2C(=O)O)cc1S(=O)(=O)Nc1ccccc1  Kd (RPA1 N-terminal domain; binding, fluorescence polarisation competition; together with: FITC-ATRIP probe): 156 ± 11 µM
CCN(CC(=O)Nc1ccc2c(c1)OCCO2)c1ncnc2scc(-c3ccc(OC)cc3)c12  Kd (CD27 antigen (CD27, Homo sapiens, UniProt P26842); binding, microscale thermophoresis): 4.21 µM
Cc1cccc(C2NC(=O)c3c(Cl)cccc3N2)c1 (racemic)  Kd (Protein polybromo-1, BD2 (PBRM1, Homo sapiens, UniProt Q86U86); ITC; wild type, racemate): 2 ± 1 µM
COc1cc(OC)c(C2CC(c3c(C)cc4oc(=O)cc(C)c4c3O)=NN2)cc1OC (stereo not drawn)  Kd (Hepatitis A virus cellular receptor 2; microscale thermophoresis): 1.52 µM
Cc1ccc(C(=O)Nc2ccc(Br)cc2C(=O)O)cc1S(=O)(=O)Nc1ccc(Br)cc1  Kd (RPA1 N-terminal domain; binding, fluorescence polarisation competition; together with: FITC-ATRIP probe): 20 ± 3.5 µM
Nc1nc2c(ncn2COCCNC(=O)c2cc3cc(Br)ccc3c(Br)c2O)c(=O)[nH]1  Kd (Deoxynucleoside triphosphate triphosphohydrolase SAMHD1, A1 site (SAMHD1, Homo sapiens, UniProt Q9Y3Z3); binding at allosteric site A1, fluorescence anisotropy competition; 1 µM protein): 13 ± 3 µM
Cc1cc(NC(=O)c2ccc(C)c(S(=O)(=O)Nc3cccc(Cl)c3)c2)c(C(=O)O)cc1C  Kd (RPA1 N-terminal domain; binding, fluorescence polarisation competition; together with: FITC-ATRIP probe): > 250 µM
CC(C)Oc1cc(C#N)ccc1C1=N[C@@H](c2cccc(Cl)c2)[C@@H](c2ccc(Cl)cc2)N1C(=O)N1CCNC(=O)C1  Kd (Protein Mdm4 (MDM4, Homo sapiens, UniProt O15151); pH 6.5, 298 K, global fit common resonances): 0.6 ± 0.5 µM

Excerpt of the above:
CC1=C[C@@]2(O)[C@@](O)(OC1)[C@@H](C)[C@@H]1CC[C@H](C)[C@H]1[C@]2(O)C(=O)[C@H](C)CCc1occc1C  Kd (Glyceraldehyde-3-phosphate dehydrogenase (GAPDH, Homo sapiens, UniProt P04406); ITC): 3.01 µM
CCCCNC(=S)N(CCCN1CCOCC1)Cc1cc2cc(C)cc(C)c2[nH]c1=O  Kd (Tumor necrosis factor receptor superfamily member 9 (Homo sapiens, UniProt Q07011); binding, microscale thermophoresis): 2.04 µM
Cc1ccc(C(=O)Nc2ccc(F)cc2C(=O)O)cc1S(=O)(=O)Nc1ccc(Cl)c(Cl)c1  Kd (RPA1 N-terminal domain; binding, fluorescence polarisation competition; together with: FITC-ATRIP probe): 15 ± 1 µM
